{"data": "Results collected from several papers", "GBA2": "Beta-glucosidase (GBA2, Homo sapiens, UniProt Q9HCG7)", "note": "Protocols differ between the studies behind these lines. ± marks the error that the study gave.", "UniProt Q9HCG7, sequence (whole entry, looked up)": "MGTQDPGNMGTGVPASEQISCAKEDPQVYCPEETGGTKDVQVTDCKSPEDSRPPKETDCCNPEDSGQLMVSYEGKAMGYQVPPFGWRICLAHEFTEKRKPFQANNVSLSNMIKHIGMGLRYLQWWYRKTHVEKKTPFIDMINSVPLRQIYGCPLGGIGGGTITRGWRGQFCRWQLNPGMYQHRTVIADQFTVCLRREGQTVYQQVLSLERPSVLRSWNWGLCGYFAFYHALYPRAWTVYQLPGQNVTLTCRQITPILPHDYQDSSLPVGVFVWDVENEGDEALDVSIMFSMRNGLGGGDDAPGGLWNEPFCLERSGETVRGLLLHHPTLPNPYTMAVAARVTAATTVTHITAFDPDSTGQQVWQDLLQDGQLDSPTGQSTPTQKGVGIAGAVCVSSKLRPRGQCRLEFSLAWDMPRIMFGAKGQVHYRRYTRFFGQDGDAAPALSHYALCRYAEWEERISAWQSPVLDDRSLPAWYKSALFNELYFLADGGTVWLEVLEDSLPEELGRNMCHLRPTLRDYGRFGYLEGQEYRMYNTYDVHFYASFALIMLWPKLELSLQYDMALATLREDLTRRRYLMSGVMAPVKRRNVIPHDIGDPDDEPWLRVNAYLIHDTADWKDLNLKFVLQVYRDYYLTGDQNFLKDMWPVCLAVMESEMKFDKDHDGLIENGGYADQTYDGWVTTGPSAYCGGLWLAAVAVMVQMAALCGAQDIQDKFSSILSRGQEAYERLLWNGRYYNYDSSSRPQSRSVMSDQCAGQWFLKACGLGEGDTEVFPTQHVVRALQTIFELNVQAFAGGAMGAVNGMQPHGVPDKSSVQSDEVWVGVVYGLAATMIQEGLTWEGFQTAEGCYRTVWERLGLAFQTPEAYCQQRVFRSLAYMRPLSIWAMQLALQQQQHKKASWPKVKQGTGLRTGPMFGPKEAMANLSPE", "UniProt P21918, sequence (whole entry, looked up)": "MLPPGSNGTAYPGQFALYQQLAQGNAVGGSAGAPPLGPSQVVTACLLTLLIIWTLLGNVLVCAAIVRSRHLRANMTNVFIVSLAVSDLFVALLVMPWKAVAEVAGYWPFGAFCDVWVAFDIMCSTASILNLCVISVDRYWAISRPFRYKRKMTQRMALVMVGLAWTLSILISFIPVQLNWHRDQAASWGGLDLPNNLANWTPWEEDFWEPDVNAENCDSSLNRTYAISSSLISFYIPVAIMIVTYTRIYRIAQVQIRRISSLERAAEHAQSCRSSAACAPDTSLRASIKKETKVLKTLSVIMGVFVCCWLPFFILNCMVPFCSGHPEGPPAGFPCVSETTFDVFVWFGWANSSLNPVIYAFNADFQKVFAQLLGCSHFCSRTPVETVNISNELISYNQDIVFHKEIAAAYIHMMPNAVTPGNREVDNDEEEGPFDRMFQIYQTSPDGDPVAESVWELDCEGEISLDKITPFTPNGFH", "UniProt Q9SZU7, sequence (whole entry, unmodified, looked up)": "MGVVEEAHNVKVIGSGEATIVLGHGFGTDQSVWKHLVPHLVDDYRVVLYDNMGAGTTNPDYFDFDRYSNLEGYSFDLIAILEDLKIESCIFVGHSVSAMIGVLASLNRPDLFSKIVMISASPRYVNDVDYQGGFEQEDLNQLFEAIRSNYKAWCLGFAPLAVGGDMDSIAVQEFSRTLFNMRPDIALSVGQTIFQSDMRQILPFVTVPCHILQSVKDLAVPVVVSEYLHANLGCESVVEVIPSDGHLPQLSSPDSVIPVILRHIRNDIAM", "UniProt Q06180, sequence (whole entry, looked up)": "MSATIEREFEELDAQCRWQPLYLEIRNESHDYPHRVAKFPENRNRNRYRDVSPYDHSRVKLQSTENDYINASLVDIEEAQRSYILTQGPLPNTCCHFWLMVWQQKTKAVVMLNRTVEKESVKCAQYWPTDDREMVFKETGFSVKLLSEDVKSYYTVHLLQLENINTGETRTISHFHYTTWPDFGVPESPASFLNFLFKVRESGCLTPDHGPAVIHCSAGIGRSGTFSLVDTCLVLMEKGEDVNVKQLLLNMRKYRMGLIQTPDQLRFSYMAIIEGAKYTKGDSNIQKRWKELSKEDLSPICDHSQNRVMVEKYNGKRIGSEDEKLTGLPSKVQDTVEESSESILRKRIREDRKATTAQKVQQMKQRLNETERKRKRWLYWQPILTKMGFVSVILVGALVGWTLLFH", "UniProt P51957, sequence (whole entry, looked up)": "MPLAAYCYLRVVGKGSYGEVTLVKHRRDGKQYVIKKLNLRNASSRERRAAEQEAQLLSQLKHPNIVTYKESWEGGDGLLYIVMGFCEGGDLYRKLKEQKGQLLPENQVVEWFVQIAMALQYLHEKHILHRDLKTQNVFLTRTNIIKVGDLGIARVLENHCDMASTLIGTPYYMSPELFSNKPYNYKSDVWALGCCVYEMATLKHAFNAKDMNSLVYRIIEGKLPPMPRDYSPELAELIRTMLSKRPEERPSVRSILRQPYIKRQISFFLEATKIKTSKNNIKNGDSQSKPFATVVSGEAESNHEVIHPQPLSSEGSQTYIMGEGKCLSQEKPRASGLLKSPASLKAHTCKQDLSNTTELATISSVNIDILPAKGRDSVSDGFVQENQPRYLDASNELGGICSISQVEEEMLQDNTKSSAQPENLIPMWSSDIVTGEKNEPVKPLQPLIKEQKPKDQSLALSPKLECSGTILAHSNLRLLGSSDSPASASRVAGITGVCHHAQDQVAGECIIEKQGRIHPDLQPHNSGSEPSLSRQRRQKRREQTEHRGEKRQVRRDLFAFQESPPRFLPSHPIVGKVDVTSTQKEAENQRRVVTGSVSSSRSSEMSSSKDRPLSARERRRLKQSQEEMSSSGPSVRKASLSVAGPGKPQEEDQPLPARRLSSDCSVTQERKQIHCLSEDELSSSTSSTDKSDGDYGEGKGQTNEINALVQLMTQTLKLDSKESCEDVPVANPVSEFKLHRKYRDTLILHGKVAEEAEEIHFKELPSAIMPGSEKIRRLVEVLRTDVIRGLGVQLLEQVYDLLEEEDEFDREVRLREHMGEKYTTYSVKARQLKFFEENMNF", "UniProt P03372, sequence (whole entry, looked up)": "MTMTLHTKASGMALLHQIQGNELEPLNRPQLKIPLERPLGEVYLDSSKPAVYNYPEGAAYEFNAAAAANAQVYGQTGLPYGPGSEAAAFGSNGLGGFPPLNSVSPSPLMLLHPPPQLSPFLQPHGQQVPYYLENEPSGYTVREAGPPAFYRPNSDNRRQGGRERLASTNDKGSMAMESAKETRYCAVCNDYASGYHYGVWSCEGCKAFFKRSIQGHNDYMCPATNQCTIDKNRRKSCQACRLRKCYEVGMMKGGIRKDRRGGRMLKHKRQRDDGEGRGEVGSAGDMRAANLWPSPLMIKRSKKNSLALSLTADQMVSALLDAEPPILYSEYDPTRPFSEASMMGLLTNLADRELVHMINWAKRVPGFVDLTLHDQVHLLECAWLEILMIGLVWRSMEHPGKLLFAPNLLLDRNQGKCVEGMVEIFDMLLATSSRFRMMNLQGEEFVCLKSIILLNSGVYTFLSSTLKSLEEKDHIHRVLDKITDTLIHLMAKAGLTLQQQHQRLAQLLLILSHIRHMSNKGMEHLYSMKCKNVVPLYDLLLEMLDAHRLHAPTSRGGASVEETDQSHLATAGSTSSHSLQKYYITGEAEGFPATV", "UniProt P05067, sequence (whole entry, looked up)": "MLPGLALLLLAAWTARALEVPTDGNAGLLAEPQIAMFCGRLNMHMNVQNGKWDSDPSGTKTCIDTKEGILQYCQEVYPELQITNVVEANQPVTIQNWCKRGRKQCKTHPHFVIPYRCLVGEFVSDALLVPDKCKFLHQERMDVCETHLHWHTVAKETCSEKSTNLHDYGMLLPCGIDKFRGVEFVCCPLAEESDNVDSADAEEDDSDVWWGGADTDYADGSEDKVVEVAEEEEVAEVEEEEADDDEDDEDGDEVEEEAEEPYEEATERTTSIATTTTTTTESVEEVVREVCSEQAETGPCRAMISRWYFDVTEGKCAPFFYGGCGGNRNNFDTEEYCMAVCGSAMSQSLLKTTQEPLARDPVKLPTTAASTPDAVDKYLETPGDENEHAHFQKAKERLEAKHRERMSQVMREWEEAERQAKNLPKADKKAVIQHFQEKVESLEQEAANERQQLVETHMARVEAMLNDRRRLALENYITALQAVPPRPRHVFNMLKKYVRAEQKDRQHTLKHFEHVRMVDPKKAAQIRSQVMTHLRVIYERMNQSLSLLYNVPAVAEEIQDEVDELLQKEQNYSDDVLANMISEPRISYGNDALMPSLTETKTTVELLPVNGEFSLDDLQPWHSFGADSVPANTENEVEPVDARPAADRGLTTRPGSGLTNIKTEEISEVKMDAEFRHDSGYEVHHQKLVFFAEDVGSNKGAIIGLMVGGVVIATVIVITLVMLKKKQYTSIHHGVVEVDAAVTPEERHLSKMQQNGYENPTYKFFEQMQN", "UniProt P46089, sequence (whole entry, unmodified, looked up)": "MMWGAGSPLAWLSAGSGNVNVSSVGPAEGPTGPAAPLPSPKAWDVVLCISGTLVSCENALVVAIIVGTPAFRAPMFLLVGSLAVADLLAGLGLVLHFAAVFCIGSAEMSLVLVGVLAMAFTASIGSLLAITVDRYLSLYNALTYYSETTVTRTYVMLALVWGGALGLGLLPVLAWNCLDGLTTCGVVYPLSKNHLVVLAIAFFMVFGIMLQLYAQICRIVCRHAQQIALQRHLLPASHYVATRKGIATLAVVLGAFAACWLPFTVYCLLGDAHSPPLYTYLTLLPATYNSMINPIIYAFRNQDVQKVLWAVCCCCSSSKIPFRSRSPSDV", "UniProt P35625, sequence (whole entry, looked up)": "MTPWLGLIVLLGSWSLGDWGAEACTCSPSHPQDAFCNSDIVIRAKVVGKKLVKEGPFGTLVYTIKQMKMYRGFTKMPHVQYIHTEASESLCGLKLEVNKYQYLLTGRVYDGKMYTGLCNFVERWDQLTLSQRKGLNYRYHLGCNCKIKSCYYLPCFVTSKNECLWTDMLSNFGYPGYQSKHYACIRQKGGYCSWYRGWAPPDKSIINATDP"}
{"Structure (SMILES)": "OC[C@@H]1[C@@H](O)[C@H](O)[C@@H](O)CN1CCCCCOCc1ccc(-c2ccccc2)cc1F", "target or system": "GBA2", "test": "inhibitor, 4MU-β-D-glucopyranoside", "test system": "HEK293T homogenates overexpressing GBA2", "quantity": "IC50", "value": "0.08 nM"}
{"Structure (SMILES)": "CC[C@H]([C@H](C)c1ccc(O)cc1)[C@H](CC)c1ccc(O)cc1", "target or system": "Estrogen receptor (ESR1, Homo sapiens, UniProt P03372)", "test": "reporter gene, luciferase reporter (3xERE)", "test system": "293T", "conditions": "24 h", "quantity": "EC50", "value": "0.605 nM"}
{"Structure (SMILES)": "Cc1ncsc1-c1ccc(C(C)NC(=O)C2CC(O)CN2C(=O)C(NC(=O)CCCCCCCCCCN2CCCC(Nc3ncc(Cl)c(Nc4ccccc4S(=O)(=O)C(C)C)n3)C2)C(C)(C)C)cc1 (stereo not drawn)", "target or system": "22Rv1", "test": "RNA-seq, refers to: NAIF1 mRNA", "conditions": "concentration not given", "how to read": "reference: DMSO", "quantity": "log2 fold change", "value": -1.69}
{"Structure (SMILES)": "CNS(=O)(=O)Nc1nccc(Cc2c(C)c3ccc(Oc4ncccc4F)cc3oc2=O)c1F", "target or system": "COV644", "test": "cell viability, CellTiter-Glo", "conditions": "7 days", "quantity": "IC50", "value": "445 nM"}
{"Structure (SMILES)": "OC[C@@H]1[C@@H](O)[C@H](O)[C@@H](O)CN1CCCCCOCc1ccc(-c2ccncc2)cc1", "target or system": "GBA2", "test": "inhibitor, 4MU-β-D-glucopyranoside", "test system": "HEK293T homogenates overexpressing GBA2", "quantity": "IC50", "value": "10 nM"}
{"Structure (SMILES)": "CC1(C)C[C@@H](Nc2cccc(-c3sc(C(=O)O)c(OCC(=O)O)c3Cl)c2)CCN1S(=O)(=O)Cc1cccc(NC(=O)CN2CCC(c3ccc4c(c3)oc(=O)n4C3CCC(=O)NC3=O)CC2)c1 (stereo partly drawn)", "target or system": "Tyrosine-protein phosphatase non-receptor type 2 (Ptpn2, Mus musculus, UniProt Q06180)", "test": "degrader, Western blot", "test system": "B16-F10", "conditions": "24 h", "quantity": "DC50", "value": "25 nM"}
{"Structure (SMILES)": "CCc1nc2cc3ccccc3cc2cc1C(=O)N1CCC[C@H]1C(=O)N[C@@H](CCC/C=C/CCC[C@H](NC(=O)[C@@H]1CCCN1C(=O)c1cc2cc3ccccc3cc2nc1CC)C(=O)N[C@@H](CCCCN)C(=O)NCCCN)C(=O)N[C@@H](CCCCN)C(=O)NCCCN", "target or system": "(CCUG)10 RNA", "test": "SPR", "quantity": "Kd", "value": "172 nM"}
{"Structure (SMILES)": "Cc1c[nH]c2nccc(-c3ccc(C(=O)N[C@@H]4c5c(F)cc(C(F)F)cc5C[C@@H]4O)cn3)c12", "target or system": "PAK5 (Homo sapiens, UniProt Q9P286)", "test": "binding, competition with immobilised ligand", "quantity": "Kd", "value": "675 nM"}
{"Structure (SMILES)": "OC[C@H]1N[C@H](CCCCCCOCC23CC4CC(CC(C4)C2)C3)[C@H](O)[C@@H](O)[C@@H]1O", "target or system": "GBA2", "test": "inhibitor, 4MU-β-D-glucopyranoside", "test system": "HEK293T homogenates overexpressing GBA2", "quantity": "IC50", "value": "34 nM"}
{"Structure (SMILES)": "CC(C)Oc1cc(Cl)ccc1CNc1cc(-c2ccccc2)nc2ncnn12", "target or system": "GPR3 (Homo sapiens, UniProt P46089, R152A)", "test": "cAMP level, agonist, cAMP GloSensor", "conditions": "R152A mutant", "quantity": "EC50", "value": "170 nM"}
{"Structure (SMILES)": "Cc1nn(-c2cccc(N)c2)c(=O)c2cnc(Nc3ccc(N4CCNCC4)cc3)nc12", "target or system": "NEK4 (Homo sapiens, UniProt P51957)", "test": "enzyme activity, inhibitor", "quantity": "IC50", "value": "1300 nM"}
{"Structure (SMILES)": "CC(C)(C)CCOCCCCCN1C[C@H](O)[C@@H](O)[C@H](O)[C@H]1CO", "target or system": "GBA2", "test": "inhibitor, 4MU-β-D-glucopyranoside", "test system": "HEK293T homogenates overexpressing GBA2", "quantity": "IC50", "value": "5 nM"}
{"Structure (SMILES)": "Nc1ncc(-c2cc(-c3cnn(CC(F)(F)F)c3)ncc2F)nc1C(=O)NC1CNCC(F)C1 (stereo not drawn)", "target or system": "AKT3", "test": "KINOMEscan", "conditions": "1 µM", "how to read": "reference: DMSO control", "quantity": "remaining binding", "value": "93%"}
{"Structure (SMILES)": "COc1cc(/C=C/c2cc(-[c-]3cccc3)[nH]n2)ccc1O.[Fe+2].c1cc[cH-]c1", "target or system": "Amyloid-beta precursor protein, Aβ40 fibrils (APP, Homo sapiens, UniProt P05067)", "test": "amyloid fibril disassembly, thioflavin T fluorescence", "conditions": "24 h, 37 °C, together with: 25 µM amyloid-beta", "quantity": "DC50", "value": "10400 ± 650 nM"}
{"Structure (SMILES)": "Cn1ccc2c(N3CCN(CCCCOc4ccc5c(c4)NC(=O)CC5)CC3)cccc21", "target or system": "DRD5 (Homo sapiens, UniProt P21918)", "test": "ligand displacement, radioligand", "quantity": "Ki", "value": "> 10000 nM"}
{"Structure (SMILES)": "CC(=O)N[C@@H]1[C@@H](O[C@@H]2O[C@H](C(=O)O)[C@@H](O[C@@H]3O[C@H](COS(=O)(=O)O)[C@@H](OS(=O)(=O)O)[C@H](O[C@@H]4O[C@H](C(=O)O)[C@@H](O[C@@H]5O[C@H](COS(=O)(=O)O)[C@@H](OS(=O)(=O)O)[C@H](O[C@@H]6O[C@H](C(=O)O)[C@@H](OS(=O)(=O)O)[C@H](OS(=O)(=O)O)[C@H]6OS(=O)(=O)O)[C@H]5NC(C)=O)[C@H](OS(=O)(=O)O)[C@H]4OS(=O)(=O)O)[C@H]3NC(C)=O)[C@H](OS(=O)(=O)O)[C@H]2OS(=O)(=O)O)[C@H](OS(=O)(=O)O)[C@@H](COS(=O)(=O)O)O[C@H]1N=[N+]=[N-]", "target or system": "Metalloproteinase inhibitor 3 (Homo sapiens, UniProt P35625)", "test": "fluorescence polarization competition", "conditions": "Metalloproteinase inhibitor 3 67 nM, together with: TAMRA-labelled probe", "quantity": "EC50", "value": "560 ± 38 nM"}
{"Structure (SMILES)": "OC[C@H]1[C@@H](O)[C@H](O)[C@@H](O)CN1CCCCCOCC12CC3CC(C1)CC(COCCCCCN1C[C@H](O)[C@@H](O)[C@H](O)[C@@H]1CO)(C3)C2", "target or system": "GBA2", "test": "inhibitor, 4MU-β-D-glucopyranoside", "test system": "HEK293T homogenates overexpressing GBA2", "quantity": "IC50", "value": "13 nM"}
{"Structure (SMILES)": "C=CC(=O)Nc1cccc(Cn2ncc3cnc(Nc4cnn(CCOC)c4)nc32)c1", "target or system": "EPHB1 human", "test": "binding, KINOMEscan", "conditions": "100 nM", "how to read": "lower = stronger binding", "quantity": "percent of control", "value": "86%"}
{"Structure (SMILES)": "COC1CN([C@H]2CC[C@H]([C@@]3(C)Oc4c(Cl)cc(C(=O)NCc5c(SC)cc(C)[nH]c5=O)c(C)c4O3)CC2)C1", "test": "RNA-seq, refers to: NATD1", "test system": "human, whole blood", "conditions": "dose not given, 24 h", "how to read": "reference: pretreatment baseline", "quantity": "log2 fold change", "value": 1.23}
{"Structure (SMILES)": "CCc1nc2cc3ccccc3cc2cc1C(=O)N1CCC[C@H]1C(=O)N[C@@H](C/C=C\\C[C@H](NC(=O)[C@@H]1CCCN1C(=O)c1cc2cc3ccccc3cc2nc1CC)C(=O)N[C@@H](CCCCN)C(=O)NCCCN)C(=O)N[C@@H](CCCCN)C(=O)NCCCN", "target or system": "(CCUG)10 RNA", "test": "SPR", "quantity": "Kd", "value": "38 nM"}
{"Structure (SMILES)": "OC[C@H]1N[C@H](C/C=C/CCOCC23CC4CC(CC(C4)C2)C3)[C@H](O)[C@@H](O)[C@@H]1O", "target or system": "GBA2", "test": "inhibitor, 4MU-β-D-glucopyranoside", "test system": "HEK293T homogenates overexpressing GBA2", "quantity": "IC50", "value": "20 nM"}
{"Structure (SMILES)": "CN1CCCNC(=O)c2cccc(c2)C(=O)NCCCN(C)CCCNc2cccc3c2C(=O)c2cccc(c2C3=O)NCCC1", "target or system": "SAS", "test": "RNA-Seq, refers to: RPS6KB1 mRNA", "conditions": "1 µM, 6 h", "how to read": "reference: untreated cells", "quantity": "log2 fold change", "value": -0.922}
{"Structure (SMILES)": "CCc1nc2cc3ccccc3cc2cc1C(=O)N[C@@H](CCCCN)C(=O)N[C@@H](C/C=C\\C[C@H](NC(=O)[C@H](CCCCN)NC(=O)c1cc2cc3ccccc3cc2nc1CC)C(=O)N1CCC[C@H]1C(=O)NCCCN)C(=O)N1CCC[C@H]1C(=O)NCCCN", "target or system": "(CCUG)10 RNA", "test": "SPR", "quantity": "Kd", "value": "313 nM"}
{"Structure (SMILES)": "Cc1cccc2c1N(C(=O)n1ccnn1)CC2", "target or system": "KAI2 (Arabidopsis thaliana, UniProt Q9SZU7, H246F)", "test": "ITC", "conditions": "H246F mutant, mean", "quantity": "Kd", "value": "99900 nM"}
{"note": "Some of these lines once more:"}
{"Structure (SMILES)": "CC(=O)N[C@@H]1[C@@H](O[C@@H]2O[C@H](C(=O)O)[C@@H](O[C@@H]3O[C@H](COS(=O)(=O)O)[C@@H](OS(=O)(=O)O)[C@H](O[C@@H]4O[C@H](C(=O)O)[C@@H](O[C@@H]5O[C@H](COS(=O)(=O)O)[C@@H](OS(=O)(=O)O)[C@H](O[C@@H]6O[C@H](C(=O)O)[C@@H](OS(=O)(=O)O)[C@H](OS(=O)(=O)O)[C@H]6OS(=O)(=O)O)[C@H]5NC(C)=O)[C@H](OS(=O)(=O)O)[C@H]4OS(=O)(=O)O)[C@H]3NC(C)=O)[C@H](OS(=O)(=O)O)[C@H]2OS(=O)(=O)O)[C@H](OS(=O)(=O)O)[C@@H](COS(=O)(=O)O)O[C@H]1N=[N+]=[N-]", "target or system": "Metalloproteinase inhibitor 3 (Homo sapiens, UniProt P35625)", "test": "fluorescence polarization competition", "conditions": "Metalloproteinase inhibitor 3 67 nM, together with: TAMRA-labelled probe", "quantity": "EC50", "value": "560 ± 38 nM"}
{"Structure (SMILES)": "OC[C@H]1[C@@H](O)[C@H](O)[C@@H](O)CN1CCCCCOCC12CC3CC(C1)CC(COCCCCCN1C[C@H](O)[C@@H](O)[C@H](O)[C@@H]1CO)(C3)C2", "target or system": "GBA2", "test": "inhibitor, 4MU-β-D-glucopyranoside", "test system": "HEK293T homogenates overexpressing GBA2", "quantity": "IC50", "value": "13 nM"}
